Measured values of several laboratories.
Each line is one published result; not all experiments were run side by side.

For `COc1ccnc(C(=O)N[C@H]2COC(=O)[C@H](Cc3ccccc3)[C@@H](OC(=O)C(C)C)[C@H](C)OC2=O)c1OCOC(=O)C(C)C`, “Freundlich coefficient KF” read 108 mL/g (soil adsorption; tested soils; geometric mean).
`COc1ccc([C@@H](O)c2cc(-c3ncnc4cc(N5CCOCC5)ccc34)c(F)cc2Cl)nn1` — result for “gastrointestinal disorders incidence”: 4% (patients, advanced solid tumours; oral, 250 mg twice daily, treatment-emergent, added: avelumab).
`C=CC(=O)Nc1cc(Nc2nccc(Nc3cc(Cl)c(F)cc3C(C)(C)O)n2)c(OC)cc1N1CC[C@@H](N(C)C)C1`: “patients with anaemia” 31.4% (human patients; oral, 300 mg, treatment-emergent adverse events).
Under “grade 3 gingival bleeding”, `COc1cc2c(Oc3ccc4[nH]c(C)cc4c3F)ccnc2cc1OCC1(N)CC1` is recorded as 0% (paediatric recurrent refractory sarcoma; 10 mg).
With `C[C@]1(CO)Cc2ncn(-c3ccc(C#N)c(Cl)c3)c2C(=O)O1` the half-life was 6.3 h (human, plasma; 80 mg single dose, geometric mean).
`CN1CC[C@@H](c2c(O)cc(O)c3c(=O)cc(-c4ccc(C(F)(F)F)cc4Cl)oc23)[C@@H]1CO` — result for “patients with adverse event”: 0% (item: Pneumonia; relapsed B-cell malignancies; oral, 200 mg, grade 3-4, intermittent dosing).
Under “incidence of tooth infection”, `Cc1cc(C)c(CNC(=O)c2cc(Cl)c3c(c2C)O[C@@](C)([C@H]2CC[C@H](N(C)C)CC2)O3)c(=O)[nH]1` is recorded as 0% (relapsed/refractory NHL patients; dose not given, trial, safety set, all TEAEs grade 5).
Under “change in Body score”, `O=C(Nc1ccccc1)C1CCN(C(=O)Oc2cccnc2)CC1` is recorded as 3.7 (psychotropic effects VAS; healthy women; 20 mg; relative to: pre-dose baseline, direction not given).
The platelet count of `COc1ccc2nc3cc(Cl)ccc3c(Nc3cc(CN4CCCC4)c(O)c(CN4CCCC4)c3)c2n1` is reported as 92.5 10⁹/L (mouse, blood; intraperitoneal, 57 mg/kg).
With `CCC[C@@](N)(CO)CCc1ccc(OCCCCCC(C)C)cc1` the oral bioavailability was 22% (male hound dog; oral, 2.5 mg/kg, solution, IV dose 1.0 mg/kg).
`CO[C@H]1C[C@@H]2CC[C@@H](C)[C@@](O)(O2)C(=O)C(=O)N2CCCC[C@H]2C(=O)O[C@H]([C@H](C)C[C@@H]2CC[C@@H](OC(=O)NCCOCCOCCOCCOCCOCCOCCOCCOCCC(=O)N3CCc4cc(Cn5nc(-c6ccc7oc(N)nc7c6)c6c(N)ncnc65)ccc4C3)[C@H](OC)C2)C[C@@H](O)[C@H](C)/C=C(\C)[C@@H](O)[C@@H](OC)C(=O)[C@H](C)C[C@H](C)/C=C/C=C/C=C/1C`: “incidence of Mucositis TEAE” 0% (patients with advanced solid tumours; intravenous, 1.6 mg/3 mg weekly, grade ≥3).
`Cn1cncc1-c1c(F)cncc1NC(=O)c1c(N)nn2cc(F)cnc12` — result for “grade ≥3 creatinine increase incidence”: 33% (human patients; oral, 220 mg once daily).
`CCc1ccc(CC/C=C/c2ccc3c(c2)C(=O)CC3)cc1` gave an MCHC of 329 g/L (Sprague-Dawley rat, female; oral, 30 mg/kg/day, 14 days).

Excerpt of the above:
With `C[C@]1(CO)Cc2ncn(-c3ccc(C#N)c(Cl)c3)c2C(=O)O1` the half-life was 6.3 h (human, plasma; 80 mg single dose, geometric mean).
`Cn1cncc1-c1c(F)cncc1NC(=O)c1c(N)nn2cc(F)cnc12` — result for “grade ≥3 creatinine increase incidence”: 33% (human patients; oral, 220 mg once daily).
